Measurements gathered from unrelated publications.
Lines come from different studies, so protocols differ. ± gives the spread as reported.
HDAC1: Histone deacetylase 1 (HDAC1, Homo sapiens, UniProt Q13547)
Sequence of UniProt Q13547 (whole entry, looked up): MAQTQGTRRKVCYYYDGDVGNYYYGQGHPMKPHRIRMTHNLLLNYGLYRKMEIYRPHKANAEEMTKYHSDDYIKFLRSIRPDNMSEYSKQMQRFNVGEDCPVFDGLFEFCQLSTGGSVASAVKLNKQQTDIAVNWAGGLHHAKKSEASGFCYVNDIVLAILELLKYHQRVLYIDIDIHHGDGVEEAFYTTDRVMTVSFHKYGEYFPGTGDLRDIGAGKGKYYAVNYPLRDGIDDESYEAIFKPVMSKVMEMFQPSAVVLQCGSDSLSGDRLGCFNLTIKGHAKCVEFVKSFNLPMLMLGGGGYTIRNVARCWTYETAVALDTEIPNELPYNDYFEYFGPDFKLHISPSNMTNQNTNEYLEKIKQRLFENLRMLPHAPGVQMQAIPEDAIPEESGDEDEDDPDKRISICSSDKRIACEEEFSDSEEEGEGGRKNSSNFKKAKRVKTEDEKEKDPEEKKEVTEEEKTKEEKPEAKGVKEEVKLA
Rhomboid protease AarA: Rhomboid protease AarA (Providencia stuartii, UniProt P46116)
Sequence of UniProt P46116 (whole entry, looked up): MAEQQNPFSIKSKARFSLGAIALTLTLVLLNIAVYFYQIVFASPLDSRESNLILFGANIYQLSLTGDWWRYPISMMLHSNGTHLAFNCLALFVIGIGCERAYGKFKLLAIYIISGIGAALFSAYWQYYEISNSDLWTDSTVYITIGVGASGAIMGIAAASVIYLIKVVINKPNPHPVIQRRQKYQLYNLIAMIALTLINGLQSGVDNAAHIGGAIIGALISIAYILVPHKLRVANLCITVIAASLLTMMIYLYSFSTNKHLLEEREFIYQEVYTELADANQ
PPARG ligand-binding domain: Peroxisome proliferator-activated receptor gamma, ligand-binding domain (PPARG, Homo sapiens, UniProt P37231)
Sequence of UniProt P37231 (whole entry, looked up): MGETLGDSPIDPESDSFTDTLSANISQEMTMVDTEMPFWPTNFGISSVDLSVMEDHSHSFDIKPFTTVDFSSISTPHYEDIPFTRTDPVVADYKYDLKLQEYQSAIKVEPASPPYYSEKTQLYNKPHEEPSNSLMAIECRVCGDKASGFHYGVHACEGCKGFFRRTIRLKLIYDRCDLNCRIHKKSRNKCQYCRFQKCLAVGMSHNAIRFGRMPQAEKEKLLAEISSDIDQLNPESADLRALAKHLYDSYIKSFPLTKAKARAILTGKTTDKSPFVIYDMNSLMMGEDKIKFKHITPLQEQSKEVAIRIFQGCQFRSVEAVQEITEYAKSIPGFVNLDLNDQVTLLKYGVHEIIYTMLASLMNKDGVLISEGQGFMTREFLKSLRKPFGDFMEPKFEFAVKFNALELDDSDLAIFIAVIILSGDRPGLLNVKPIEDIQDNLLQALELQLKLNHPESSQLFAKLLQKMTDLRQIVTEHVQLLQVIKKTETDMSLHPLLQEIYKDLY
Melanoma-associated antigen 4 MAGE homology domain: Melanoma-associated antigen 4, MAGE homology domain (Homo sapiens, UniProt P43358)
Sequence of UniProt P43358 (whole entry, looked up): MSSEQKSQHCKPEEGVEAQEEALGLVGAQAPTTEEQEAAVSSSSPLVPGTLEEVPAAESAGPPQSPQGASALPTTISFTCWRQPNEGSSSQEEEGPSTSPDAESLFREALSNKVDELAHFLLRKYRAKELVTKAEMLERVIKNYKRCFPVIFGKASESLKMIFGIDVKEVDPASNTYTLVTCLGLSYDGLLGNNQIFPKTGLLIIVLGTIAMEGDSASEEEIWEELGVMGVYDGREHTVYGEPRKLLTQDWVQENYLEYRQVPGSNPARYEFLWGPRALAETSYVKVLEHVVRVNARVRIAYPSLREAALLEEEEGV
PPARG: Peroxisome proliferator-activated receptor gamma (PPARG, Homo sapiens, UniProt P37231)
Sequence of UniProt P03952 (whole entry, looked up): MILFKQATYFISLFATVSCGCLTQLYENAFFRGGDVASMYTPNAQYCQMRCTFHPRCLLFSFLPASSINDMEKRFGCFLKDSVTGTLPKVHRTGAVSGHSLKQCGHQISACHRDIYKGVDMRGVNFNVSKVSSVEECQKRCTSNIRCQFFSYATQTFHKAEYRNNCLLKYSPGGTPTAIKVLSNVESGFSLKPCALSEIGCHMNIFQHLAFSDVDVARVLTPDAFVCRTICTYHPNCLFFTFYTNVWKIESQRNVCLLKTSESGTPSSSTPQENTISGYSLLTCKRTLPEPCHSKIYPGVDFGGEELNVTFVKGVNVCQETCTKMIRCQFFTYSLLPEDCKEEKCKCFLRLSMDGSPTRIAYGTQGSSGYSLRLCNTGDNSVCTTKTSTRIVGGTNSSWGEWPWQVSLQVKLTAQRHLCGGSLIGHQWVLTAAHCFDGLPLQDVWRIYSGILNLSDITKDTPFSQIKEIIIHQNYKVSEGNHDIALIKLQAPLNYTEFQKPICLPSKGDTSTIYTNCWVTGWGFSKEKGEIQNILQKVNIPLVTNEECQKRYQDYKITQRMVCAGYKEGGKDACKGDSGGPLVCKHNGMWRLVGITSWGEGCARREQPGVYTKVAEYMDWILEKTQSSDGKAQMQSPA
Sequence of UniProt Q9NR20 (whole entry, looked up): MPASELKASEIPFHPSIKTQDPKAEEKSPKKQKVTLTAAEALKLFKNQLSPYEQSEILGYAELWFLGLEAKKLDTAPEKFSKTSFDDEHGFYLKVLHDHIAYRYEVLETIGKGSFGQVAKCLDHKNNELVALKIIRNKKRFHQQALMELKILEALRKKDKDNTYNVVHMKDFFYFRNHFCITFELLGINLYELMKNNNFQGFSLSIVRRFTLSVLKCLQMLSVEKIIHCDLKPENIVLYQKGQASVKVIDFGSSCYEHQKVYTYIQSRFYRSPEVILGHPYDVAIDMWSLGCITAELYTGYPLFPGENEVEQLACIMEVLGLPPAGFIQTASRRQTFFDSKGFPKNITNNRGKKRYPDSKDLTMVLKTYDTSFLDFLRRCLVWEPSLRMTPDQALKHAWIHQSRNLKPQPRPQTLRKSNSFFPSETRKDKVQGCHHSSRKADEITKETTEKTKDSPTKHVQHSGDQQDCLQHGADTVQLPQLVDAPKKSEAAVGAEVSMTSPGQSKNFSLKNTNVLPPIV
Sequence of UniProt P28064 (whole entry, looked up): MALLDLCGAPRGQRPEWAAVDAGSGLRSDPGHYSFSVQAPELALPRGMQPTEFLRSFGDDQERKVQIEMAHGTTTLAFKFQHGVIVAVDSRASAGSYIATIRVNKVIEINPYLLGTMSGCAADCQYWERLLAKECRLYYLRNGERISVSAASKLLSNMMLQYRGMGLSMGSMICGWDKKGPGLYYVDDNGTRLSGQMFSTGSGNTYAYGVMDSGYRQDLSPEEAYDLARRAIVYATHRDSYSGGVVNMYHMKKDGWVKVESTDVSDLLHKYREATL
Sequence of UniProt P08173 (whole entry, looked up): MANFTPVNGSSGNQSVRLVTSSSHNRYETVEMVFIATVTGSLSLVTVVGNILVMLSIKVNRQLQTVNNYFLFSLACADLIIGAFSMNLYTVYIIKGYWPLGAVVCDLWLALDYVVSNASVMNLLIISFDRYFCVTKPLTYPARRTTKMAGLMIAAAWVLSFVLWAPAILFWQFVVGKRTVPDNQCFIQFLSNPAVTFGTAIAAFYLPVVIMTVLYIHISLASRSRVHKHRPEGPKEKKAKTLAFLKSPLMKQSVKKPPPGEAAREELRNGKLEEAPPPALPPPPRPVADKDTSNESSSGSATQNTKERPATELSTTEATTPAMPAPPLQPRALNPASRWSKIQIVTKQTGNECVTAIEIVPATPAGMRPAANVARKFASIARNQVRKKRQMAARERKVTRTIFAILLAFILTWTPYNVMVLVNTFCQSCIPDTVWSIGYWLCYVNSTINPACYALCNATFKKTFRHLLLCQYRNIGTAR
Sequence of UniProt P04406 (whole entry, looked up): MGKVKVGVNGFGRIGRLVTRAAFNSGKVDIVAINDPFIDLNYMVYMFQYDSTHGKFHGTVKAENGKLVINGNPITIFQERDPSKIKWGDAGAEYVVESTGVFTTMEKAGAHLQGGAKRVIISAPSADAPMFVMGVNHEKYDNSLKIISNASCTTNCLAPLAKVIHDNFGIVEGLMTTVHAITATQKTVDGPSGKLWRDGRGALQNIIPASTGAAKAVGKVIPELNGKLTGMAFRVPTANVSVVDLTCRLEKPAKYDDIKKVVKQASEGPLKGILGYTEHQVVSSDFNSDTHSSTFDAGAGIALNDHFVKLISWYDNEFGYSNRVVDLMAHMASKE
Sequence of UniProt O75582 (whole entry, looked up): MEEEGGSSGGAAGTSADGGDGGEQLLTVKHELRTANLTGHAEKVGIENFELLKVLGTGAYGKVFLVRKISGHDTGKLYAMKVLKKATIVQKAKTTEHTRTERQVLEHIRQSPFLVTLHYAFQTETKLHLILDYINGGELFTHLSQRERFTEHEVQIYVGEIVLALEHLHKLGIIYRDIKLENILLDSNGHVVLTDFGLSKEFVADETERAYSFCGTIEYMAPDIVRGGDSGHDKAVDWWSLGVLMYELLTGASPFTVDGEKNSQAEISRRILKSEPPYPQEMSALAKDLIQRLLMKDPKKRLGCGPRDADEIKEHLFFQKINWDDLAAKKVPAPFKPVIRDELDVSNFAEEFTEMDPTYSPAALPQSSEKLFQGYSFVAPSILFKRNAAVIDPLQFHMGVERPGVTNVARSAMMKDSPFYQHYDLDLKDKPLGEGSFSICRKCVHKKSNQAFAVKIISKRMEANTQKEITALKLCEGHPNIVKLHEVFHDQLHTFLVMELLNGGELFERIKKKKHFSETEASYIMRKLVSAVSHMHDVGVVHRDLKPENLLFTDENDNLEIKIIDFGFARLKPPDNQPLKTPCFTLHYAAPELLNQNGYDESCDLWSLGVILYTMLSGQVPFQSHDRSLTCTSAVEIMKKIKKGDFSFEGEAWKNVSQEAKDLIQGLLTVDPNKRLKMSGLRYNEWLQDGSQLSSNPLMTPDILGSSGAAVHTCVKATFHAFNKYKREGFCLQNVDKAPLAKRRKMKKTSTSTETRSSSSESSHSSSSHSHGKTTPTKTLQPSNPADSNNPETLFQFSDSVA
Sequence of UniProt P28065 (whole entry, looked up): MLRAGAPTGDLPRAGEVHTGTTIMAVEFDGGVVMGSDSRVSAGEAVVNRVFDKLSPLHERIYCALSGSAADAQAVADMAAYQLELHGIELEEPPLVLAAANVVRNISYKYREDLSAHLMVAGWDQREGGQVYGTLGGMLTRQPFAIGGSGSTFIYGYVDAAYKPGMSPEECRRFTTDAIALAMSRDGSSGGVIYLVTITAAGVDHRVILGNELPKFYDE

| SMILES | target | test | system | setting | IC50 [µM] |
| --- | --- | --- | --- | --- | --- |
| Cc1cc(C(C)(C)C)ccc1OS(=O)(=O)Oc1cccc(/C=C/C(=O)NO)c1 | HDAC1 | enzyme activity, inhibitor, fluorescence |  |  | 3.19 |
| O=C(NC1CCN(Cc2ccccc2)CC1)C(C(F)(F)F)C(F)(F)F | Rhomboid protease AarA | enzyme activity, inhibitor, fluorescence |  |  | 29 |
| Cc1c(C)n(-c2ccc(Br)cc2)c2ncnc(N3CCC(C(N)C(=O)N4CCCC4)CC3)c12 (centres unmarked) | Protein-arginine deiminase type-4 (PADI4, Homo sapiens, UniProt Q9UM07) | enzyme activity, inhibitor, fluorescence |  |  | 15.9 |
| Cc1c(Cc2ccc(OC(C)(C)C(=O)O)cc2)c2ccc(C(=O)N[C@@H](C)c3cccc(C(C)(C)C)c3)cc2n1C | PPARG ligand-binding domain | reporter gene, luciferase reporter | HEK293T, Gal4-PPARγ LBD |  | 0.74 |
| CC[C@H](C)[C@@H]1NC(=O)[C@H](Cc2ccc(O)cc2)NC(=O)CCSCc2cccc(c2)CSCCNC(=O)[C@H](Cc2c[nH]cn2)NC(=O)[C@H](Cc2ccc(O)cc2)NC(=O)[C@H](CC(=O)O)NC(=O)[C@H](Cc2ccc(O)cc2)NC(=O)[C@H](CC(C)C)NC(=O)[C@H](CCCNC(=N)N)NC1=O | Melanoma-associated antigen 4 MAGE homology domain | binding, inhibitor, TR-FRET displacement |  | added: Alexa647-MTP-1 | 0.0235 ± 0.008 |
| Cc1c(Cc2ccc(OC(C)C(=O)O)cc2)c2ccc(C(=O)N[C@@H](C)c3ccc(C(C)(C)C)cc3)cc2n1C (some centres unmarked) | PPARG ligand-binding domain | reporter gene, luciferase reporter | HEK293T, Gal4-PPARγ LBD |  | 3.46 |
| Cc1nn(-c2cccc(N)c2)c(=O)c2cnc(Nc3ccc(N4CCNCC4)cc3)nc12 | Dual specificity tyrosine-phosphorylation-regulated kinase 4 (DYRK4, Homo sapiens, UniProt Q9NR20) | enzyme activity, inhibitor |  |  | > 10 |
| Cc1nc2c(F)cc(-c3nc(Nc4cccc(NC(=O)CCCCCCC(=O)NO)c4)ncc3F)cc2n1C(C)C | HDAC1 | enzyme activity, inhibitor |  |  | 0.0045 |
| O=C(NC1CCN(Cc2ccccc2)C1)C(C(F)(F)F)C(F)(F)F (centres unmarked) | Rhomboid protease AarA | enzyme activity, inhibitor, fluorescence |  |  | 21 |
| Cc1nnc(C(C)C)n1C1CC2CCC(C1)N2CCC(NC(=O)COCCOCCOCCOCCNC(=O)Cc1ccc(-c2nncnn2)cc1)c1ccccc1 (centres unmarked) | C-C chemokine receptor type 5 (CCR5, Homo sapiens, UniProt P51681) | calcium mobilization, antagonist | HEK-293T | 2 h preincubation, top constrained to 1, added: 0.1 µM PSC-RANTES | 0.0295 |
| O=C(Nc1ccccc1OCC(=O)N1CCOCC1)C(C(F)(F)F)C(F)(F)F | Rhomboid protease AarA | enzyme activity, inhibitor, fluorescence |  |  | 21 |
| Cc1cc(C)nc(NC(=S)N2CCN(c3ccncc3)CC2)c1 | Glyceraldehyde-3-phosphate dehydrogenase (GAPDH, Homo sapiens, UniProt P04406) | enzyme activity, inhibitor |  |  | > 100 |
| O=C(CCNC(=O)CNC(=O)CC(c1ccccc1)(c1ccccc1)c1ccccc1)NC[C@@H]1CCCN(C(=O)c2ccc(F)cc2)C1 | Muscarinic acetylcholine receptor M4 (CHRM4, Homo sapiens, UniProt P08173) | ligand displacement, radioligand |  | cell membranes | > 30 |
| Cc1c(Cc2cccc(OC(C)(C)C(=O)O)c2)c2ccc(C(=O)N[C@H](C)c3ccc(C(C)(C)C)cc3)cc2n1C | PPARG ligand-binding domain | reporter gene, luciferase reporter | HEK293T, Gal4-PPARγ LBD |  | 294 |
| O=C(Nc1cc(Cl)ccc1OCC1CC1)C(C(F)(F)F)C(F)(F)F | Rhomboid protease AarA | enzyme activity, inhibitor, fluorescence |  |  | 2.2 |
| COCCN(C)CC(=O)NC(Cc1ccc(-c2ccccc2)cc1)B(O)O (centres unmarked) | Proteasome subunit beta type-9 / Proteasome subunit beta type-10 (Homo sapiens, UniProt P28065+P40306) | β1i activity, inhibitor |  | immunoproteasome, added: Ac-PAL-AMC | > 10 |

| SMILES | target | test | system | setting | IC50 [µM] |
| --- | --- | --- | --- | --- | --- |
| Cc1ccc(S(=O)(=O)N/N=C/c2ccsc2B(O)O)cc1 | Plasma kallikrein (KLKB1, Homo sapiens, UniProt P03952) | enzyme activity, inhibitor |  |  | > 100 |
| Cc1nc(Nc2ncc(C(=O)Nc3c(C)cccc3Cl)s2)cc(N2CCN(CCNC(=O)c3ccc(C(=O)c4ccc(OCC(=O)NCCOCCOCCCCCCCl)cc4)cc3)CC2)n1 | Proto-oncogene tyrosine-protein kinase Src (SRC, Gallus gallus, UniProt P00523) |  |  |  | < 0.004 |
| O=C(C(C(F)(F)F)C(F)(F)F)N1CCOc2ccccc21 | Rhomboid protease AarA | enzyme activity, inhibitor, fluorescence |  |  | 3.8 |
| Cc1ccc(CNC(=O)[C@@H](NC(=O)[C@H](CCc2ccccc2)NC(=O)[C@H](CCc2ccccc2)N(C)Cc2cnccn2)C(C)C)cc1 | Psmb1/Psmb8 (Rattus norvegicus, UniProt P18421+P28064) | enzyme activity, inhibitor |  | added: Ac-ANW-aminocoumarin, PA28α 12 nM | 0.24 |
| COC(=O)CCCCCCCC(=O)Nc1ccc(Nc2ncc(F)c(-c3cc(F)c4nc(C)n(C(C)C)c4c3)n2)cc1 | HDAC1 | enzyme activity, inhibitor |  |  | > 1 |
| CC1C(=O)N(S(=O)(=O)c2ccc(C#N)cc2)C1c1ccccc1 (racemic) | Rhomboid protease AarA | enzyme activity, inhibitor |  |  | 134 |
| Cc1c(Cc2ccc(OC(C)(C)C(=O)O)cc2)c2ccc(C(=O)N[C@@H](C)c3cccc(C(C)C)c3)cc2n1C | PPARG | ligand displacement, TR-FRET |  |  | 0.056 |
| CC[C@H](C)[C@@H]1NC(=O)[C@H](Cc2ccc(O)cc2)NC(=O)CSC[C@@H](C(N)=O)NC(=O)[C@H](CC(N)=O)NC(=O)[C@H](Cc2c[nH]cn2)NC(=O)[C@H](Cc2ccc(O)cc2)NC(=O)[C@H](CC(=O)O)NC(=O)[C@H](Cc2ccccc2)NC(=O)[C@H](CC(C)C)NC(=O)[C@H](CCCNC(=N)N)NC1=O | Melanoma-associated antigen 4 MAGE homology domain | binding, inhibitor, TR-FRET displacement |  | added: Alexa647-MTP-1 | 0.0174 ± 0.0027 |
| CC(C)Cn1cc(Cc2cccc(OC(C)(C)C(=O)O)c2)c2ccc(C(=O)N[C@@H](C)c3cccc(C(C)(C)C)c3)cc21 | PPARG ligand-binding domain | reporter gene, luciferase reporter | HEK293T, Gal4-PPARγ LBD |  | 0.06 |
| O=C(NC1CCCCC1)C(C(F)(F)F)C(F)(F)F | Rhomboid protease AarA | enzyme activity, inhibitor, fluorescence |  |  | 25 |
| Cc1c(Cc2cccc(OC(C)C(=O)O)c2)c2ccc(C(=O)N[C@@H](C)c3ccc(C(F)(F)F)cc3)cc2n1C (some centres unmarked) | PPARG ligand-binding domain | reporter gene, luciferase reporter | HEK293T, Gal4-PPARγ LBD |  | 3.38 |
| Cc1nc2ccc(Br)cc2c(=O)n1N | Serine protease 1 (PRSS1, Bos taurus, UniProt P00760) | enzyme activity, inhibitor |  |  | 7.87 |
| Cc1c(Cc2cc(Cl)cc(O[C@@H](C)C(=O)O)c2)c2ccc(C(=O)N[C@@H](C)c3ccc(C(C)(C)C)cc3)cc2n1C | PPARG | ligand displacement, TR-FRET |  |  | 0.002 |
| O=C1CC(c2ccccc2)N1S(=O)(=O)c1cccc(-c2ccccc2)c1 (centres unmarked) | Rhomboid protease AarA | enzyme activity, inhibitor, fluorogenic peptide |  | 148 min pre-incubation | 6.6 |
| Cc1c(Cc2ccc(Cl)c(OC(C)C(=O)O)c2)c2ccc(C(=O)NC(C)c3ccc(C(C)(C)C)cc3)cc2n1CC1CC1 (centres unmarked) | PPARG | ligand displacement, TR-FRET |  |  | 0.00177 |
| Cc1cc(NC2CCN(C)CC2)ccc1-c1cc2c(N3CCC[C@H](C(=O)NCc4ccc(OC(F)(F)F)cc4)C3)ncnc2[nH]1 | Ribosomal protein S6 kinase alpha-5 (RPS6KA5, Homo sapiens, UniProt O75582) | enzyme activity, inhibitor, mobility shift |  |  | > 8 |
